Literature values as cited in several papers.

| Substance | tested on | assay | system | setting | endpoint | value |
| --- | --- | --- | --- | --- | --- | --- |
| NCCc1ccc(Oc2ccc(O)cc2)c(I)c1 |  | [3H]dopamine uptake, inhibitor | rat brain synaptosomes | 10 µM | inhibition | 77.6% |
| COc1ccc(C[C@H]2NC[C@H](O)[C@H]2OC(C)=O)cc1 | Entamoeba |  |  |  | IC50 | 0.7 µM |
| LYLQMNSL | HLA class I histocompatibility antigen, A alpha chain, allele A*26:01 (Homo sapiens, UniProt P04439) | peptide-MHC binding | peptide |  | IC50 | 13.1 µM |
| COc1cc2c(Oc3ccc4[nH]c(C)cc4c3F)ccnc2cc1OCC1(N)CC1 |  |  | adult patients, refractory solid tumours |  | maximum tolerated dose | 12 mg/day |
| CC[C@@H](C(N)=O)N1CCCC1=O |  |  | mouse | i.p., 6 Hz seizure test, 32 mA | protective index | > 31.8 |
| O=C1N[C@@H]2CCCC[C@H]2N[C@H]1c1c[nH]c2ncccc12 | COLO 320 ABCB1-resistant colon | cytotoxicity |  |  | IC50 | > 100 µM |
| C=C(C)[C@@H]1CCC(C)=C[C@H]1c1c(O)cc(CCCCC)cc1O |  |  | male rat | i.p., MES seizure test | protective index | 9.4 |
| CC(O)CN1CCN(CC(=O)[O-])CCN(CC(=O)[O-])CCN(CC(=O)[O-])CC1.[Gd+3] (centres unmarked) |  |  | saline | 310 K, 1.41 T | relaxivity r1 | 3.1 mM⁻¹ s⁻¹ |

Excerpt of the above:
| Substance | tested on | assay | system | setting | endpoint | value |
| --- | --- | --- | --- | --- | --- | --- |
| CC(O)CN1CCN(CC(=O)[O-])CCN(CC(=O)[O-])CCN(CC(=O)[O-])CC1.[Gd+3] (centres unmarked) |  |  | saline | 310 K, 1.41 T | relaxivity r1 | 3.1 mM⁻¹ s⁻¹ |
